Measured values gathered from unrelated publications.
A part holds a random share of what one study measured.

Block 1 — method: protein-binding microarray; molecule type: double-stranded DNA, one strand shown; medium: in vitro; tested at: 250 nM; notes: 60-bp whole probe; added: salmon DNA 0.4 mg/ml; reference: random background probes; direction: higher = stronger binding; endpoint: log fluorescence; constant ends, left off below: GCCTAGCAC … GTCTTGATTCGCTTGACGCTGCTG
Target: Interferon regulatory factor 5, full length, phosphomimetic (IRF5, Homo sapiens, UniProt Q13568-2, residues 1-514, K96S/S451D/S453D/S456D/S462D)
Strand = TCATTTTTTTTTTTTTGACTGTGCTAG; result = 0.897 z-score
Strand = GACGGTATCGACTATCGGCACGTGCTA; result = 4.04 z-score
Strand = TTACGTCTCGGACTGGGTTAGTGCTAG; result = 0.258 z-score
Strand = GACGGACTGCTTCTCCTTACGTGCTAG; result = -0.251 z-score
Strand = ATAGGACTGGGTATCGGTTAGTGCTAG; result = 4.31 z-score
Strand = TCAATTCTCTTCTTGCAACTGTGCTAG; result = 0.807 z-score
Strand = GACGGTTTCGACTTTCGGGTCGTGCTA; result = 9.02 z-score
Strand = TTCGGTATCCTTATCCTTTAGTGCTAG; result = 1.08 z-score

Block 2 — method: aptamer microarray, sandwich; molecule type: DNA with 2'F-ANA; medium: in vitro; tested at: 200 nM; added: Cy3 exosite-II aptamer, 400 nM; direction: higher = stronger binding; endpoint: mean fluorescence intensity; strand: GGTTGGTGTGGTTGG
Target: Prothrombin, mature alpha-thrombin (F2, Homo sapiens, UniProt P00734)
Notes: whole 15-mer aptamer, many near background
Modification = 2'F-ANA at 4 7 10; result = 109 a.u.
Modification = 2'F-ANA at 1 3 4 5 6 8 9 10 12; result = 61.1 a.u.
Modification = 2'F-ANA at 2 3 5 6 8 9 11 12 13 14 15; result = 68.5 a.u.
Modification = 2'F-ANA at 1 2 5 6 9 10 11 12 13 14; result = 45.5 a.u.
Modification = 2'F-ANA at 3 4 5 7 8 10 11 13; result = 75.9 a.u.
Modification = 2'F-ANA at 1 3 4 5 8 15; result = 68.2 a.u.
Modification = 2'F-ANA at 2 3 6 8 12 13 14 15; result = 429 a.u.
Modification = 2'F-ANA at 2 3 4 5 6 9 11 12 14 15; result = 184 a.u.
Modification = 2'F-ANA at 1 3 4 5 6 7 8 9 12 14 15; result = 72.7 a.u.

Block 3 — method: protein-binding microarray; molecule type: double-stranded DNA, one strand shown; medium: in vitro; tested at: not given; direction: higher = stronger binding; endpoint: E-score
Target: Transcriptional repressor CTCF (CTCF, Homo sapiens, UniProt P49711, residues 1-727, full length assumed)
UniProt P49711, sequence (whole entry, looked up): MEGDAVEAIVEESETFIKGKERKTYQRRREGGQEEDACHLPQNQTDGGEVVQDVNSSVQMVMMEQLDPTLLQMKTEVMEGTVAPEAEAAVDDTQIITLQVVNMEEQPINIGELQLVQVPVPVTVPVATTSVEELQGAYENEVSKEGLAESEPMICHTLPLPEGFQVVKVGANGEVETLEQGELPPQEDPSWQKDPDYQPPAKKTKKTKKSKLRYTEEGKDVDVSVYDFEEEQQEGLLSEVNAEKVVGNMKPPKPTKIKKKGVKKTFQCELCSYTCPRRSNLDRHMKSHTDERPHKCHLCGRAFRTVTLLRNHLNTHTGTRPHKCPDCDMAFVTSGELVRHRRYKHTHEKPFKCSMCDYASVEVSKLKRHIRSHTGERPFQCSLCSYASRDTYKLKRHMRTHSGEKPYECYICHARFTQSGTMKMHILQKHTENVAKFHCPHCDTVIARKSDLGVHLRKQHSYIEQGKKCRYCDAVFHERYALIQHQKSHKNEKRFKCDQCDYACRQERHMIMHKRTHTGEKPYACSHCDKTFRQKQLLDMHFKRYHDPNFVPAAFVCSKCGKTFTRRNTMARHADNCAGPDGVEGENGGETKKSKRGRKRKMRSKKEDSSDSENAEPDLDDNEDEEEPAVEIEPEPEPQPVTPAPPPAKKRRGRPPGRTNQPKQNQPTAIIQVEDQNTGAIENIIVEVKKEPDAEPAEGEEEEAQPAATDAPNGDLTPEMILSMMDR
Notes: k-mer, scored over probes, only values ≥0.25
Strand = AAAACAAG; result = 0.256
Strand = ATGATAAT; result = 0.312
Strand = ACATGTAG; result = 0.261
Strand = CATAGCAC; result = 0.25
Strand = ACTTTATG; result = 0.253
Strand = ACATTTTA; result = 0.295
Strand = ATGAATAC; result = 0.285

Mixed results
Molecule = PhoQ, residues 284 288 289 292 302 303 SLSVQF; target = PhoP, residues 12 14 15 18 19 LWHSL (Escherichia coli, UniProt P23836); assay = Sort-seq, refers to: YFP reporter; test system = E. coli; setting = PhoQ-PhoP variant library, added: 10 µM Mg2+; how to read = reference: high Mg2+ state, higher = stronger signaling; endpoint = fold induction; result = 7.05

For quick reference, copied from above (block 2):
Modification = 2'F-ANA at 2 3 6 8 12 13 14 15; result = 429 a.u.
Modification = 2'F-ANA at 2 3 4 5 6 9 11 12 14 15; result = 184 a.u.
Modification = 2'F-ANA at 1 3 4 5 6 7 8 9 12 14 15; result = 72.7 a.u.
